Measurements pooled from the literature.
Numbered parts are unrelated; each lists some results of a single study.
Chain of UniProt P07949 (whole entry, unmodified, looked up): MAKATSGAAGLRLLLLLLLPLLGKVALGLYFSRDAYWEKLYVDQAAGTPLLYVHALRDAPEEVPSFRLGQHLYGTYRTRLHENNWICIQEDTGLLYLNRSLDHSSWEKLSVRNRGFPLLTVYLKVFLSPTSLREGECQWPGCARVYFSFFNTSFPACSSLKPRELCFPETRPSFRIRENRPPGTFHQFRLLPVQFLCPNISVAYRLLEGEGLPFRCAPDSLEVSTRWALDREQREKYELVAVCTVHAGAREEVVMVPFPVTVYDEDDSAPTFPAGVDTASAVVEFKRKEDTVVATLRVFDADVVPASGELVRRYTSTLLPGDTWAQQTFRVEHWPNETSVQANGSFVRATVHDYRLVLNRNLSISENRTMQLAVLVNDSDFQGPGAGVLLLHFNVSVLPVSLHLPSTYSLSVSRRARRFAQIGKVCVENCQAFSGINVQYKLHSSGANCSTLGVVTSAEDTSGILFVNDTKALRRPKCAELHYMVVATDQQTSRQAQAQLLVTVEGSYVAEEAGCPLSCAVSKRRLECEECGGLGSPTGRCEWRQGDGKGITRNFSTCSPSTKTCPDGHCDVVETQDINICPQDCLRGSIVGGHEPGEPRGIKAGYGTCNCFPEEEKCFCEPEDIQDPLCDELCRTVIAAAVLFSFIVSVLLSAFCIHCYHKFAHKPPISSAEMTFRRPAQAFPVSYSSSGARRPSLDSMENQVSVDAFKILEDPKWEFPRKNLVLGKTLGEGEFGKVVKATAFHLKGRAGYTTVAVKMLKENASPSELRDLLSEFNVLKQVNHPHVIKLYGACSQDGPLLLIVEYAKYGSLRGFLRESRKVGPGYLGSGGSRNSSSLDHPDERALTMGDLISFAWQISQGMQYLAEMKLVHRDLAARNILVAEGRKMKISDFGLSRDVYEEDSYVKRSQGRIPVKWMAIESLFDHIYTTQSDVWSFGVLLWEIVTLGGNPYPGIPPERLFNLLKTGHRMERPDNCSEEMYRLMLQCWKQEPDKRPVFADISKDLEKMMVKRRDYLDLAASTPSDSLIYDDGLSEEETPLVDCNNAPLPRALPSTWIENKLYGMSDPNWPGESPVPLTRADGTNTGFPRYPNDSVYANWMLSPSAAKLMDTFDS
Chain of UniProt Q8TDR2 (whole entry, looked up): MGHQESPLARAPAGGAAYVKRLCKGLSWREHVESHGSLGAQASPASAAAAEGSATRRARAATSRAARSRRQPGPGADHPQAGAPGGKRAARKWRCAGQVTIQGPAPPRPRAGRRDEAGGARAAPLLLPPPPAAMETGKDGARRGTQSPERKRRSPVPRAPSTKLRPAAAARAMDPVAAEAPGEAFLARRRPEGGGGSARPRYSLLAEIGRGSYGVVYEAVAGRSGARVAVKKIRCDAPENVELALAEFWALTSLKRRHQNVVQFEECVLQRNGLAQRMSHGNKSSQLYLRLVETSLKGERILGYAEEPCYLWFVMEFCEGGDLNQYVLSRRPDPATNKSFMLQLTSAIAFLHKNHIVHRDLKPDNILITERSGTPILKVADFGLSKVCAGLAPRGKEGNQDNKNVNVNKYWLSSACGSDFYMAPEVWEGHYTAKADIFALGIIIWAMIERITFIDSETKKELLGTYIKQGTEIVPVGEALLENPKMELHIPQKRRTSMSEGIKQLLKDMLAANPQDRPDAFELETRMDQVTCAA
Chain of UniProt Q9HC98 (whole entry, looked up): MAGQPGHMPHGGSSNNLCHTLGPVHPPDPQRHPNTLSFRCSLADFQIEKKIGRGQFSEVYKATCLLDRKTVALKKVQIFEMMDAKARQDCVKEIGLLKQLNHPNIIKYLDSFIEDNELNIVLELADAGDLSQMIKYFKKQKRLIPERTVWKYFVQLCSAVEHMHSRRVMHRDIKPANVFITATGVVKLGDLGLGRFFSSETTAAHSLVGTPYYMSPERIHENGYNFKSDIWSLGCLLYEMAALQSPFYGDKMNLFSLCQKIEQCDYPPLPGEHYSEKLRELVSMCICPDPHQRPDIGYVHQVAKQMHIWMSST
Chain of UniProt P53779 (whole entry, looked up): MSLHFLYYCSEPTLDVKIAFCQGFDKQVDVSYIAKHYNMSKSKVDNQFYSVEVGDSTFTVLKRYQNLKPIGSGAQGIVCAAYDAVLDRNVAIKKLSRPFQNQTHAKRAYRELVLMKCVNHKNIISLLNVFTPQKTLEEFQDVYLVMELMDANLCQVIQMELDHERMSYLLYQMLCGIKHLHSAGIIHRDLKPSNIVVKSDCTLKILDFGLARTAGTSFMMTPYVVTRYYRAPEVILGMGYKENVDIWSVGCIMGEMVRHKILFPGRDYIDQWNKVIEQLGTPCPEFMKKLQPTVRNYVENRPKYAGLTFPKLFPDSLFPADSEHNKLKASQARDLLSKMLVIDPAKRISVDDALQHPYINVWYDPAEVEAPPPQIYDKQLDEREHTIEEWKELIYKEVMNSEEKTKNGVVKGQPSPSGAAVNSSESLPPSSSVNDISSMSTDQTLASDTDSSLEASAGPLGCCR
Chain of UniProt Q8TF76 (whole entry, looked up): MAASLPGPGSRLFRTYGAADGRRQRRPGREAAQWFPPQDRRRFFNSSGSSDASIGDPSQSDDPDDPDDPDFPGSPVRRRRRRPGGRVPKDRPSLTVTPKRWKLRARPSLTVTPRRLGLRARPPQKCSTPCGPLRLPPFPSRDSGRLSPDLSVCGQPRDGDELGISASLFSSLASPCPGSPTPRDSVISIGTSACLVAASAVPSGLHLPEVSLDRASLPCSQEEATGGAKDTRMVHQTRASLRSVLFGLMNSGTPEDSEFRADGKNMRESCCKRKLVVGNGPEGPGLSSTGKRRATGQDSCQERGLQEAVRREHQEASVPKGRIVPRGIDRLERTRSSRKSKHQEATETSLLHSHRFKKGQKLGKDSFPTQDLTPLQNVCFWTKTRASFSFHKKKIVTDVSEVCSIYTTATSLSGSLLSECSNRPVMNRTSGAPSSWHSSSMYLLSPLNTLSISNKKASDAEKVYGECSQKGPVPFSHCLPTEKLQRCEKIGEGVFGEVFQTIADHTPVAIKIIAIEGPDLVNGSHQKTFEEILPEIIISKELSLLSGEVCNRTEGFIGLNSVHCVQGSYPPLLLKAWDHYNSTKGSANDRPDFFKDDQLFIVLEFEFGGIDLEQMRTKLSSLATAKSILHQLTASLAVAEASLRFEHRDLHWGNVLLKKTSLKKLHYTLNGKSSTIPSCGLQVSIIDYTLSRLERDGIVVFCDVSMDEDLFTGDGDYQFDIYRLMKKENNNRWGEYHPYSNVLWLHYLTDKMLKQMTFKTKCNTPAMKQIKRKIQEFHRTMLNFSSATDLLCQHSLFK
Chain of UniProt O14965 (whole entry, looked up): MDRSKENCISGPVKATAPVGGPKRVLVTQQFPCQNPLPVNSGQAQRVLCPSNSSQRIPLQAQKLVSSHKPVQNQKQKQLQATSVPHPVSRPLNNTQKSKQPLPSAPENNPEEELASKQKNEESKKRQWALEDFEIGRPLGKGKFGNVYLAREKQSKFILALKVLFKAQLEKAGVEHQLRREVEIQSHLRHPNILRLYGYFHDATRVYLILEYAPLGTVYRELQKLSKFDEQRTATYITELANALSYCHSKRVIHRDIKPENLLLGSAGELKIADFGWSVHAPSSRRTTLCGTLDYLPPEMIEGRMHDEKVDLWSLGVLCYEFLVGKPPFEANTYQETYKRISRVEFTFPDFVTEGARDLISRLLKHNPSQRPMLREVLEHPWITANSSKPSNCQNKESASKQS
Chain of UniProt O94768 (whole entry, looked up): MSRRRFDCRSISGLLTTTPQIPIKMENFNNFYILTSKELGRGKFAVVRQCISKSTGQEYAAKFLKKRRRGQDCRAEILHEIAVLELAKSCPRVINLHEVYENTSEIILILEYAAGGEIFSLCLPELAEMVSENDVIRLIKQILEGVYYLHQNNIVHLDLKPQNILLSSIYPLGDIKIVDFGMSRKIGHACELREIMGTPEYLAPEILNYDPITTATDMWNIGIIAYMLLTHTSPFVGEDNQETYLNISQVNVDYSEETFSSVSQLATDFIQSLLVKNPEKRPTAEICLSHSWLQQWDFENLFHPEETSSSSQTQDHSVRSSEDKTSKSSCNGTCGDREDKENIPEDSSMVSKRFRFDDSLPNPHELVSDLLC

Study 1
Cell line: HaCaT
Concentration: 100 µM
Time: 18 h
Endpoint: viability
COc1cc(C(=O)NC2CCCNC2)cc(OC)c1OC (stereo not drawn): 108%
C/C=C1\[C@H]2C=C(C)C[C@]1(N)c1ccc(=O)[nH]c1C2: 108%
CN1C(C)(C)CCCC1(C)C: 93%
Oc1c(I)cc(I)c2cccnc12: 111%
CNCC(O)c1ccc(OC(=O)C(C)(C)C)c(OC(=O)C(C)(C)C)c1 (stereo not drawn): 87.1%
CCN(CC)C(=S)SSC(=S)N(CC)CC: 53%
C=CC[C@@H]1/C=C(\C)C[C@H](C)C[C@H](OC)[C@H]2O[C@@](O)(C(=O)C(=O)N3CCCC[C@H]3C(=O)O[C@H](/C(C)=C/[C@@H]3CC[C@@H](O)[C@H](OC)C3)[C@H](C)[C@@H](O)CC1=O)[C@H](C)C[C@@H]2OC: 25%
CCOC(=O)N[C@@H]1CC[C@@H]2[C@@H](C1)C[C@H]1C(=O)O[C@H](C)[C@H]1[C@H]2/C=C/c1ccc(-c2cccc(F)c2)cn1: 98.3%
Cc1nc2c([nH]1)-c1ccccc1N(C(=O)c1ccc(NC(=O)c3ccccc3-c3ccccc3)cc1)CC2: 50.6%
C[C@@H](O[C@H]1OCCN(Cc2nc(O)n(P(=O)(O)O)n2)[C@H]1c1ccc(F)cc1)c1cc(C(F)(F)F)cc(C(F)(F)F)c1: 15.7%
N#C[C@@H]1C[C@@H]2C[C@@H]2N1C(=O)[C@@H](N)C12CC3CC(CC(O)(C3)C1)C2: 117%
CC1(C)CCC(C)(C)c2cc(NC(=O)c3ccc(C(=O)O)cc3)ccc21: 55.7%

Study 2
Compound: CC#CC(=O)N1CCC[C@H]1c1nc(-c2ccc(C(=O)Nc3ccccn3)cc2)c2c(N)nccn12
Action: inhibitor
Concentration: 1 µM
Endpoint: inhibition
Ephrin type-A receptor 6 (EPHA6, Homo sapiens, UniProt Q9UF33); enzyme activity: 11%
Interleukin-1 receptor-associated kinase 1 (IRAK1, Homo sapiens, UniProt P51617); enzyme activity: 1%
Epidermal growth factor receptor (EGFR, Homo sapiens, UniProt P00533, A750P/del747-749); enzyme activity: 3%
Hepatocyte growth factor receptor (MET, Homo sapiens, UniProt P08581, Y1235D); enzyme activity: 0%
Proto-oncogene tyrosine-protein kinase receptor Ret (RET, Homo sapiens, UniProt P07949, V804M); enzyme activity: 15%
Inhibitor of nuclear factor kappa-B kinase subunit beta (IKBKB, Homo sapiens, UniProt O14920); enzyme activity: 0%
Serine/threonine-protein kinase TNNI3K (TNNI3K, Homo sapiens, UniProt Q59H18); enzyme activity: 55%
Serine/threonine-protein kinase 35 (STK35, Homo sapiens, UniProt Q8TDR2); enzyme activity: 1%
Serine/threonine-protein kinase haspin (HASPIN, Homo sapiens, UniProt Q8TF76); enzyme activity: 1%
Ribosomal protein S6 kinase alpha-6, C-terminal kinase domain (RPS6KA6, Homo sapiens, UniProt Q9UK32): 2%
Mitogen-activated protein kinase 10 (MAPK10, Homo sapiens, UniProt P53779); enzyme activity: 19%
Mitogen-activated protein kinase kinase kinase 5 (MAP3K5, Homo sapiens, UniProt Q99683); enzyme activity: 22%
Calcium/calmodulin-dependent protein kinase type 1B (PNCK, Homo sapiens, UniProt Q6P2M8); cell-free assay: 0%
Tyrosine-protein kinase Fyn (FYN, Homo sapiens, UniProt P06241); enzyme activity: 0%

Study 3
Target: Serine/threonine-protein kinase N2 (PKN2, Homo sapiens, UniProt Q16513)
Chain of UniProt Q16513 (whole entry, looked up): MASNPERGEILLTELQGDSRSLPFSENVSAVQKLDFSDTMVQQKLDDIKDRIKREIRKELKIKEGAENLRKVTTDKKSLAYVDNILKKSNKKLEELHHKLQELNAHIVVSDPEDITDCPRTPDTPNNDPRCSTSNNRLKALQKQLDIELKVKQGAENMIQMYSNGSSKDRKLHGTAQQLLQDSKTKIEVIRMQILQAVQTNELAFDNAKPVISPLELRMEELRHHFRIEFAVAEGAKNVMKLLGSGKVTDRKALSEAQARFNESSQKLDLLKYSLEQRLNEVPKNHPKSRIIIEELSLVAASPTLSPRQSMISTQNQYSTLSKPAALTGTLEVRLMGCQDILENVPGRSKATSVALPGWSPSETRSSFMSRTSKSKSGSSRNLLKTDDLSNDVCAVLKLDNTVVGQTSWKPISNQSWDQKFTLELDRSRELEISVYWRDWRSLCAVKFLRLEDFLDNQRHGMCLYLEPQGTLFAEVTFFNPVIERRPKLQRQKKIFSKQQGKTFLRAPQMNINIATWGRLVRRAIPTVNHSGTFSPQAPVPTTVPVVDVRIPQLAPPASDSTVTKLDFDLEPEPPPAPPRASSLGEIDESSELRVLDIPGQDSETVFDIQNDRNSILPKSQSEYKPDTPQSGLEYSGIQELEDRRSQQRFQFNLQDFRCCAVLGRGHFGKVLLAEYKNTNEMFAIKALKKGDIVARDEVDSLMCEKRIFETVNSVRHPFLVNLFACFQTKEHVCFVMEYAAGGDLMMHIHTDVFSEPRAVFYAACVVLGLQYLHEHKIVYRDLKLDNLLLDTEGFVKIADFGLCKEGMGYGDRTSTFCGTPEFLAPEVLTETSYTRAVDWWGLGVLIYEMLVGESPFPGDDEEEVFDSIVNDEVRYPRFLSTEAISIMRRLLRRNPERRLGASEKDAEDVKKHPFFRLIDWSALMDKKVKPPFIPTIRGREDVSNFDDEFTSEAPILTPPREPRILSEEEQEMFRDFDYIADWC
Effect on: enzyme activity
Action: inhibitor
Concentration: 0.5 µM
Baseline: control
Endpoint: remaining activity
Cn1nc2c3c(cccc31)C(=O)c1ccccc1-2: 97.3%
COc1cc2c(cc1OC)-c1[nH]nc(Nc3cccc(F)c3)c1C2: 92%
CCOc1nc(NC(=O)Cc2cc(OC)ccc2OC)cc(N)c1C#N: 99.7%
O=c1cc(-c2cccc3c2Sc2ccccc2S3)oc(N2CCOCC2)c1: 72.9%
CN([C@@H](Cc1ccc(OS(=O)(=O)c2cccc3cnccc23)cc1)C(=O)N1CCN(c2ccccc2)CC1)S(=O)(=O)c1cccc2cnccc12: 98.6%
CCN(CC)CCNC(=O)c1c(C)[nH]c(/C=C2\C(=O)Nc3ccc(F)cc32)c1C: 89.1%
O=C(Nc1cccc(Nc2nccc(Nc3cccc(C(F)(F)F)c3)n2)c1)C1CC1: 89.5%
COc1cc2ncnc(Nc3cccc(Cl)c3)c2cc1OC: 89.8%
CCN(CC)CCNC(=O)c1c(C)[nH]c(/C=C2\C(=O)Nc3ccc(Cl)cc32)c1C: 84.4%
Ic1cccc(CSc2nnc(-c3ccncc3)o2)c1: 100%
CCN(CC)C(=O)c1ccc(Nc2nc(OCC3CCCCC3)c3[nH]cnc3n2)cc1: 91.8%
Cc1cn(-c2cc(NC(=O)c3ccc(C)c(Nc4nccc(-c5cccnc5)n4)c3)cc(C(F)(F)F)c2)cn1: 96%
O=C1C(Cl)=C(N2C(=O)CCC2=O)C(=O)c2ccccc21: 108%
Cc1nc2cc3nc(-c4cccs4)cnc3cc2n1C: 71%
c1ccc(-c2cnc(Nc3ccc(OCCN4CCCC4)cc3)s2)cc1: 97%
Cc1cc2ncc(-c3ccccc3)nc2cc1C: 104%
c1ccc(-c2[nH]ncc2-c2ccnc3ccccc23)nc1: 91.4%
O=C1c2ccccc2-c2n[nH]c3cccc1c23: 94.2%
O=C(NC(NC(=S)Nc1ccc(F)c([N+](=O)[O-])c1)C(Cl)(Cl)Cl)C(c1ccccc1)c1ccccc1 (stereo not drawn): 88.1%
CN(C)C[C@H]1CCn2c(c(C3=C(c4cn(C)c5ccccc45)C(=O)NC3=O)c3ccccc32)C1: 87%
Nc1cccc(-c2cc3c(Oc4cccc(O)c4)ncnc3[nH]2)c1: 72%
COc1cc2ncnc(Nc3ccc(O)c(Br)c3)c2cc1OC: 97.2%
N#Cc1c(NC(=O)c2cccc3ccccc23)sc2c1CCCC2: 103%

Study 4
SMILES: O=C(O)[C@@H]1[C@@H](Cn2nnc3ccccc3c2=O)CC[C@H]1C(=O)c1ccc(OCCC2CCOCC2)cc1
Concentration: 1 µM
Endpoint: remaining binding
Proto-oncogene tyrosine-protein kinase receptor Ret (RET, Homo sapiens, UniProt P07949, M918T); cell-free assay, competition with immobilised ligand: 100%
Platelet-derived growth factor receptor beta (PDGFRB, Homo sapiens, UniProt P09619); cell-free assay, competition with immobilised ligand: 100%
Mitogen-activated protein kinase 8 (MAPK8, Homo sapiens, UniProt P45983); cell-free assay, competition with immobilised ligand: 100%
Cyclin-dependent kinase 2 (CDK2, Homo sapiens, UniProt P24941); cell-free assay, competition with immobilised ligand: 100%
Dual specificity mitogen-activated protein kinase kinase 7 (MAP2K7, Homo sapiens, UniProt O14733); cell-free assay, competition with immobilised ligand: 89%
ALK tyrosine kinase receptor (ALK, Homo sapiens, UniProt Q9UM73); cell-free assay, competition with immobilised ligand: 100%
Serine/threonine-protein kinase SIK1 (SIK1, Homo sapiens, UniProt P57059); competition binding: 91%
Interferon-induced, double-stranded RNA-activated protein kinase (EIF2AK2, Homo sapiens, UniProt P19525); cell-free assay, competition with immobilised ligand: 100%
Serine/threonine-protein kinase PAK 2 (PAK2, Homo sapiens, UniProt Q13177); cell-free assay, competition with immobilised ligand: 82%
Serine/threonine-protein kinase PAK 4 (PAK4, Homo sapiens, UniProt O96013); cell-free assay, competition with immobilised ligand: 89%
Inhibitor of nuclear factor kappa-B kinase subunit epsilon (IKBKE, Homo sapiens, UniProt Q14164); cell-free assay, competition with immobilised ligand: 100%
Serine/threonine-protein kinase 17B (STK17B, Homo sapiens, UniProt O94768); cell-free assay, competition with immobilised ligand: 99%
Serine/threonine-protein kinase Nek6 (NEK6, Homo sapiens, UniProt Q9HC98); cell-free assay, competition with immobilised ligand: 100%
Aurora kinase A (AURKA, Homo sapiens, UniProt O14965); cell-free assay, competition with immobilised ligand: 100%
Serine/threonine-protein kinase mTOR (MTOR, Homo sapiens, UniProt P42345); cell-free assay, competition with immobilised ligand: 96%
Cyclin-dependent kinase 19 (CDK19, Homo sapiens, UniProt Q9BWU1); competition binding: 100%
Serine/threonine-protein kinase 35 (STK35, Homo sapiens, UniProt Q8TDR2); cell-free assay, competition with immobilised ligand: 100%

Excerpt of the above (study 4):
Cyclin-dependent kinase 2 (CDK2, Homo sapiens, UniProt P24941); cell-free assay, competition with immobilised ligand: 100%
Serine/threonine-protein kinase 35 (STK35, Homo sapiens, UniProt Q8TDR2); cell-free assay, competition with immobilised ligand: 100%
Dual specificity mitogen-activated protein kinase kinase 7 (MAP2K7, Homo sapiens, UniProt O14733); cell-free assay, competition with immobilised ligand: 89%
Serine/threonine-protein kinase Nek6 (NEK6, Homo sapiens, UniProt Q9HC98); cell-free assay, competition with immobilised ligand: 100%
Serine/threonine-protein kinase SIK1 (SIK1, Homo sapiens, UniProt P57059); competition binding: 91%
